Experimental data pooled from the literature.
Each line is one published result; not all experiments were run side by side. “And” joins repeats or separate records; there may be more than shown. ± marks the error that the study gave.

O=C(OC(C(F)(F)F)C(F)(F)F)N1CCC(CNS(=O)(=O)c2ccc(Cl)cc2)CC1  seizure severity (C57BL/6J mouse corneal kindling; oral, 30 mg/kg, day 11; baseline: control): decreased
BP(=O)(OP(=O)([O-])OC[C@H]1O[C@@H](n2c[n+](C)c3c(O)nc(N)nc32)[C@H](O)[C@@H]1O)OP(=O)(O)OC[C@H]1O[C@@H](n2cnc3c(=O)[nH]c(N)nc32)[C@H](O)[C@@H]1O (stereo partly shown)  IC50 ratio (cap-dependent translation; rabbit reticulocyte lysate; no cap pre-incubation; baseline: m7GpppG over compound): 6.3 fold
CNC(=O)N(C)c1ccc(C(=O)Nc2ccc(OC)cc2C(=O)Nc2ccc(Cl)cn2)cc1  concentration doubling prothrombin time (human plasma): 30 ± 6 µM
CCCCC1NC(=O)c2ccccc21 (racemic)  black tail length (thrombosis; mouse, carrageenan-induced thrombosis; oral, 20 mg/kg daily for 2 days, 48 h after carrageenan): 3.9 ± 1.1 cm
CCCC[C@H](NC(=O)[C@@H](NC(=O)[C@H](CC(=O)O)NC(=O)[C@H](CCC(N)=O)NC(=O)[C@H](CC(C)C)NC(=O)[C@H](CC(C)C)NC(=O)[C@H](CCCN)NC(=O)[C@H](CCCNC(=N)N)NC(=O)[C@H](C)NC(=O)[C@H](CO)NC(=O)[C@H](CC(C)C)NC(=O)[C@H](CCC(N)=O)NC(=O)[C@H](CC)NC(=O)[C@H](CC(C)C)NC(=O)[C@@H](NC(=O)[C@H](CCCN)NC(=O)[C@H](CCCNC(=N)N)NC(=O)[C@H](Cc1ccc(O)cc1)NC(=O)[C@H](CO)NC(=O)[C@H](CCC(N)=O)NC(=O)[C@@H](NC(=O)[C@H](Cc1ccccc1)NC(=O)[C@@H](NC(=O)[C@H](C)NC(=O)[C@H](CC(=O)O)NC(=O)[C@@H](C)NC(=O)[C@H](Cc1ccc(O)cc1)NC)[C@@H](C)CC)[C@@H](C)O)C(C)C)[C@@H](C)CC)C(=O)N[C@@H](CC(=O)O)C(=O)N[C@@H](CCCNC(=N)N)C(=O)NCCCCC(N)=O  relative potency (GH release; rat, male, serum; subcutaneous, 3 µg/kg, 15 min; baseline: reference GHRH agonist JI-38): 1.5 and 1.47
O=C1/C(=C/c2ccc(O)cc2)Oc2c1c(O)cc1oc3cc(O)c(O)cc3c21  EC50 (ABTS scavenging, absorbance): 2620 µM
CCCC[C@H](NC(=O)[C@@H](NC(=O)[C@H](CC(=O)O)NC(=O)[C@H](CCC(N)=O)NC(=O)[C@H](CC(C)C)NC(=O)[C@H](CC(C)C)NC(=O)[C@H](CCCN)NC(=O)[C@H](CCCNC(=N)N)NC(=O)[C@H](C)NC(=O)[C@H](CO)NC(=O)[C@H](CC(C)C)NC(=O)[C@H](CCC(N)=O)NC(=O)[C@H](CC)NC(=O)[C@H](CC(C)C)NC(=O)[C@@H](NC(=O)[C@H](CCCN)NC(=O)[C@H](CCCNC(=N)N)NC(=O)[C@H](Cc1ccc(O)cc1)NC(=O)[C@H](CO)NC(=O)[C@H](CCC(N)=O)NC(=O)[C@@H](NC(=O)[C@H](Cc1ccccc1)NC(=O)[C@@H](NC(=O)[C@H](C)NC(=O)[C@H](CC(=O)O)NC(=O)[C@H](C)NC(=O)[C@H](Cc1ccc(O)cc1)NC)[C@@H](C)CC)[C@@H](C)O)C(C)C)[C@@H](C)CC)C(=O)N[C@@H](CC(=O)O)C(=O)NCCCCNC(=N)N  relative potency (GH release; rat, male, serum; subcutaneous, 3 µg/kg, 30 min; baseline: reference GHRH agonist JI-38): 1.35
COC1OC(C)C(OS(=O)(=O)O)C(OC2OC(C)C(OS(=O)(=O)O)C(OC3OC(C)C(OS(=O)(=O)O)C(OC4OC(C)C(OS(=O)(=O)O)C(OC5OC(C)C(OS(=O)(=O)O)C(OC6OC(C)C(OS(=O)(=O)O)C(OC7OC(C)C(OS(=O)(=O)O)C(OC8OC(C)C(OS(=O)(=O)O)C(OC9OC(C)C(OS(=O)(=O)O)C(OC%10OC(C)C(OS(=O)(=O)O)C(OS(=O)(=O)O)C%10OS(=O)(=O)O)C9OS(=O)(=O)O)C8OS(=O)(=O)O)C7OS(=O)(=O)O)C6OS(=O)(=O)O)C5OS(=O)(=O)O)C4OS(=O)(=O)O)C3OS(=O)(=O)O)C2OS(=O)(=O)O)C1OS(=O)(=O)O (stereo not shown)  concentration doubling APTT (clotting time; human plasma): 14.5 µg/mL
CC(C)[C@H](CO)Nc1nc(Nc2ccc(C(=O)NCCNS(=O)(=O)c3cccc4c(N(C)C)cccc34)c(Cl)c2)c2ncn(C(C)C)c2n1  TUNEL-positive cells (ND2-SmoA1 mice, medulloblastoma tumour; dose not given): 8.9 ± 1.8%
COc1ccc(/C=C/c2cc(O)cc(O)c2)cc1O  initial DPPH scavenging rate (concentration not given): 1.27 µmol/L/s

Repeated from above:
O=C(OC(C(F)(F)F)C(F)(F)F)N1CCC(CNS(=O)(=O)c2ccc(Cl)cc2)CC1  seizure severity (C57BL/6J mouse corneal kindling; oral, 30 mg/kg, day 11; baseline: control): decreased
CNC(=O)N(C)c1ccc(C(=O)Nc2ccc(OC)cc2C(=O)Nc2ccc(Cl)cn2)cc1  concentration doubling prothrombin time (human plasma): 30 ± 6 µM
